Measurements collected from several papers.
Every numbered part comes from another study and shows a few of its results, in no order. Changes are numbered by the printed parent chain.

Sample 1 — target: CCNB1, cyclin fold, Cln2 fusion (human); method: yeast growth competition, sequencing; matrix: yeast; notes: weak parent motif; baseline: not given; direction: higher = stronger binding
Starting sequence: SCAPER docking peptide (human); SNARRSLNFGGST
Substitution	normalised enrichment score
SNARRSLNFNGST [G10N]	0.27
SNARRSLNFGSST [G11S]	0.316
SNARRCLNFGGST [S6C]	0.637
SNARRSFNFGGST [L7F]	0.105
QNARRSLNFGGST [S1Q]	0.432
SNARRSLNFLGST [G10L]	0.188
SNARRSLNFCGST [G10C]	0.308

Sample 2 — method: protein binding microarray; molecule type: double-stranded DNA, one strand shown; matrix: in vitro; concentration: not given; baseline: not given; direction: higher = stronger binding
Target: Histone acetyltransferase KAT6A, winged helix 2, GST fusion (KAT6A, Homo sapiens, UniProt Q92794, residues 85-181)
Notes: 8-mer, flanks averaged, mean of 2 arrays, mostly near background
Residues (chain): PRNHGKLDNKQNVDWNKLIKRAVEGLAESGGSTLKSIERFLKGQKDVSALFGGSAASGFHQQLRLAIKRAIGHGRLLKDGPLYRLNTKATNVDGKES
Oligonucleotide	E-score
TCTAAGAA	0.112
ACGACGAG	-0.194
CATACAAG	-0.201
GAGTATTA	-0.0937
AGGTCCAC	-0.114
AAAAAACT	0.0315
AGACGCCA	-0.0144
CCGAGGAA	0.136

Sample 3 — method: universal PBM; molecule type: double-stranded DNA, one strand shown; matrix: in vitro; concentration: 600 nM; direction: higher = stronger binding
Target: Sal-like protein 4, full length isoform A (SALL4, Homo sapiens, UniProt Q9UJQ4, residues 1-1053)
Sequence of UniProt Q9UJQ4 (whole entry, looked up): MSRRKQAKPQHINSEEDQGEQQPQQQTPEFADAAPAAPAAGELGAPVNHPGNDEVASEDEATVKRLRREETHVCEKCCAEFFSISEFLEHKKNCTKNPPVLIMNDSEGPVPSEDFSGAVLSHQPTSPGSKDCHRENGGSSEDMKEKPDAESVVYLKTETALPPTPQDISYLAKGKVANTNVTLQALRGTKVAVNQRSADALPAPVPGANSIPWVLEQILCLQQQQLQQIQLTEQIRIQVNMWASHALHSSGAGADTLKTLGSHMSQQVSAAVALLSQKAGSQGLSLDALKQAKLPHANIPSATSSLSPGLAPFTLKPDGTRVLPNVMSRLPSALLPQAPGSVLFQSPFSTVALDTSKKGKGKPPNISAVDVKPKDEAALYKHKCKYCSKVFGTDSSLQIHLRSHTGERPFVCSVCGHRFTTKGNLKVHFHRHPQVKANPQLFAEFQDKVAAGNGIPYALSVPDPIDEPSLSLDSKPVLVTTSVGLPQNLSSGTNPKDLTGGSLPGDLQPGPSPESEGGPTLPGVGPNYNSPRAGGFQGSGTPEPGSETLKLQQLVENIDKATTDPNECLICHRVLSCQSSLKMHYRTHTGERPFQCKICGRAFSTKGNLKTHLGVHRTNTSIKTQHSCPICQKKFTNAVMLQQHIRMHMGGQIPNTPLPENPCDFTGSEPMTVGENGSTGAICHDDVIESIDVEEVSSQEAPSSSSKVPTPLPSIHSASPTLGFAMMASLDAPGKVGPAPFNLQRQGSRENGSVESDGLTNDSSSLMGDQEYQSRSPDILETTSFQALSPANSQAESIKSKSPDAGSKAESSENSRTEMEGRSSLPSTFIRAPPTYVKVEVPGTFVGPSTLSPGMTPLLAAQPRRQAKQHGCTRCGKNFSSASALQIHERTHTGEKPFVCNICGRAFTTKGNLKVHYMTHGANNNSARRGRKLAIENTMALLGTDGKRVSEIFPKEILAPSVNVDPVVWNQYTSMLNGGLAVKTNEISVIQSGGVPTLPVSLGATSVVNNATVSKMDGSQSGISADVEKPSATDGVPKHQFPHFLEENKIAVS
Notes: 8-mer, flanks averaged, mean of replicates
Oligonucleotide	E-score
ACACAGGG	-0.184
CGGGCCTC	-0.324
CCGCTTAA	-0.0814
CGCTGCAG	-0.223
GATTAATC	0.207
CGCACGTA	-0.0375
AATTCTGC	0.07
AACTAAGA	0.199
CTGTACAA	0.116

Mixed results
Substance	target	test	test system	setting	scale	measurement	value
PhoQ, residues 284 288 289 292 302 303 SIHMAM	PhoP, residues 12 14 15 18 19 NQFFI (Escherichia coli, UniProt P23836)	Sort-seq, item: YFP reporter	E. coli	PhoQ-PhoP variant library, together with: 10 µM Mg2+	baseline: high Mg2+ state, higher = stronger signaling	fold induction	9.44

Repeated from above (sample 1):
Substitution	normalised enrichment score
SNARRSLNFNGST [G10N]	0.27
SNARRSLNFGSST [G11S]	0.316
SNARRCLNFGGST [S6C]	0.637
SNARRSFNFGGST [L7F]	0.105
